Experimental data of several laboratories.
Each line is one published result; not all experiments were run side by side.
Matrix: plasma

COc1cccc(OCCCN)c1-c1cc(Nc2cnc(C#N)cn2)n[nH]1  Vd (human; intravenous, 80 mg/m², patients, infusion): 1000 L
COc1cccc(-c2ccc(NC(=O)C3=C(C(=O)O)CCC3)c(F)c2)c1  Vd/F (male human; oral, 10 mg, single dose, fasted, healthy volunteers): 9.36 L
O=C(c1nc2n(n1)[C@H](c1ccccc1)C[C@@H]2F)C1CC1  Vd/F (human; oral, 225 mg, single dose, fasted, healthy volunteers): 82.3 L
CCCC[C@H](NC(C)=O)C(=O)N[C@H]1CCC(=O)NC[C@@H](C(=O)N[C@@H](Cc2c[nH]c3ccccc23)C(N)=O)NC(=O)[C@H](CCCNC(=N)N)NC(=O)[C@@H](Cc2ccccc2)NC(=O)[C@H](Cc2c[nH]cn2)NC1=O  Vd/F (human; subcutaneous, 5 mg, single dose, healthy volunteers): 488 L
O=C(c1cccnc1-c1ccncc1)N1CCC(O)(Cc2ccccc2)CC1  Vd/F (human; oral, 400 mg, multiple doses, once daily, healthy volunteers): 713 L
CCOc1ccc(Cc2cc([C@]34OC[C@](CO)(O3)[C@@H](O)[C@H](O)[C@H]4O)ccc2Cl)cc1  Vd/F (human; oral, 15 mg, single dose, healthy volunteers): 305 L
N#Cc1ccc(-c2cnc3ccc(-c4ccc(C(=O)N5CCOCC5)cc4)cn23)cc1  Vd/F (human; oral, 10 mg, single dose, fed, healthy volunteers): 13.3 L
CCOc1ccc(Cc2cc([C@@H]3S[C@H](CO)[C@@H](O)[C@H](O)[C@H]3O)c(OC)cc2C)cc1  Vd/F (human; oral, 10 mg/day, multiple doses): 38.8 L

Some of these lines once more:
CCOc1ccc(Cc2cc([C@]34OC[C@](CO)(O3)[C@@H](O)[C@H](O)[C@H]4O)ccc2Cl)cc1  Vd/F (human; oral, 15 mg, single dose, healthy volunteers): 305 L
